Literature values that unrelated publications cite.

Structure (SMILES) | test system | conditions | how to read | endpoint | value
N#Cc1ccc(N2N=C3c4ccc(C(=O)N5CCC(O)CC5)nc4CC[C@@H]3[C@@H]2C2CCCC2)cc1Cl | human, plasma | 0.5 mg, steady state | – | Cmax | 60 to 80 nM
CC(NCCc1ccc(O)cc1)C(O)c1ccc(O)cc1 (centres unmarked) | human, plasma | concentration not given, median of reported values | – | Cmax | 40 nM
COc1cc2c(c(OC)c1OC)-c1ccc(OC)c(=O)cc1[C@@H](NC(C)=O)CC2 | human, plasma | concentration not given, total concentration | – | Cmax | 17 nM
C[C@H]1C[C@@H]2[C@H]([C@@H](O)C[C@@]3(C)[C@H]2CC[C@]3(O)C(=O)CO)[C@@]2(C)C=CC(=O)C=C12 | human, plasma | concentration not given, median of reported values | – | Cmax | 310 nM
Cc1nnc2n1-c1ccc(Cl)cc1C(c1ccccc1)=NC2 | human, plasma | highest proposed clinical dose | – | Cmax | 333 nM
CCC(CC)O[C@@H]1C=C(C(=O)O)C[C@H](N)[C@H]1NC(C)=O | human adult, plasma | 75 mg twice daily, 5 days, steady state | – | Cmax | 1300 nM
Cc1ncc2n1-c1ccc(Cl)cc1C(c1ccccc1F)=NC2 | human | oral, 2.5 mg, single agent, geometric mean | – | Cmax | 26.2 nM
CC1(C)CCC(CN2CCN(c3ccc(C(=O)NS(=O)(=O)c4ccc(NCC5CCOCC5)c([N+](=O)[O-])c4)c(Oc4cnc5[nH]ccc5c4)c3)CC2)=C(c2ccc(Cl)cc2)C1 | human, non-Hodgkin's lymphoma patients | 50 mg single dose, added: ketoconazole 400 mg once daily | reference: without ketoconazole | Cmax increase | 2.3 fold
CN[C@H]1C(=O)N[C@@H]2Cc3ccc(cc3)Oc3cc4cc(c3O[C@@H]3O[C@H](C(=O)O)[C@@H](O)[C@H](O)[C@H]3NC(=O)CCCCCCCCC(C)C)Oc3ccc(cc3Cl)[C@@H](O)[C@@H]3NC(=O)[C@H](NC(=O)[C@@H]4NC(=O)[C@@H](NC2=O)c2cc(cc(O)c2Cl)Oc2cc1ccc2O)c1ccc(O)c(c1)-c1c(O[C@H]2O[C@H](CO)[C@@H](O)[C@H](O)[C@@H]2O)cc(O)cc1[C@@H](C(=O)NCCCN(C)C)NC3=O | healthy humans | 1000 mg single dose, mean | – | Cmax | 287 µg/mL
Cc1cccc([C@H](C)c2cnc[nH]2)c1C | human | concentration not given | – | Cmax | 4.7 nM
c1cc2c(cc1[C@H]1OC[C@H]3[C@@H]1CO[C@@H]3c1ccc3c(c1)OCO3)OCO2 | human, plasma | 50 mg/day sesamin supplement, equal sesamin content | – | Cmax | 54 nM

Some of these lines once more:
Structure (SMILES) | test system | conditions | how to read | endpoint | value
CC(NCCc1ccc(O)cc1)C(O)c1ccc(O)cc1 (centres unmarked) | human, plasma | concentration not given, median of reported values | – | Cmax | 40 nM
